Assay results gathered from unrelated publications.
Numbered parts are unrelated; each lists some results of a single study.

Study 1
Target: Ras GTPase-activating protein-binding protein 1, C-terminal RGG region (G3BP1, Homo sapiens, UniProt Q13283)
Sequence of UniProt Q13283 (whole entry, looked up): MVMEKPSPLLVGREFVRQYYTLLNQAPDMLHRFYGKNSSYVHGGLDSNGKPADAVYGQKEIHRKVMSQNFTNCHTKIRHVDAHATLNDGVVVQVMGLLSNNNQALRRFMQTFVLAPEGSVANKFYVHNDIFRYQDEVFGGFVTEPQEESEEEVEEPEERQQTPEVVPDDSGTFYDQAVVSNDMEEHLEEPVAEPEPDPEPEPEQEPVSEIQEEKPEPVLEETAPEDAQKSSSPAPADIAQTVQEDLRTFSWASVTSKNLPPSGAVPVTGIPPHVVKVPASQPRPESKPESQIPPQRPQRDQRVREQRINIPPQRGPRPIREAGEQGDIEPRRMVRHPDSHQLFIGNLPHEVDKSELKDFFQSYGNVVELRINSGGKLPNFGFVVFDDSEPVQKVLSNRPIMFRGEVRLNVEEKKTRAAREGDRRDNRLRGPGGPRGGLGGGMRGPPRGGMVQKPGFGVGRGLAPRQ
Technique: RNA Bind-n-Seq
Form: RNA
Sample: in vitro
Tested at: 1 µM
Setting: whole 134-nt RNA, ends assumed
Together with: 150 mM KCl
Reference: input library
Direction: higher = stronger binding
Sequence | log2 enrichment
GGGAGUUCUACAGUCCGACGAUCACCAUGCAGGUGGGCAUCUUUGGGAAGUGGGGCAAGGGGGGGAUAGGGUGGGGGGUAACACUUUGGGAACAGGUGGUCCCAGGUCGUUUCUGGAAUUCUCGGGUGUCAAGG | 2.02
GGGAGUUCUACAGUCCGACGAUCAGUCCUGUGCUACACAUCGUAUGUACCGAAUCAAAUUUUUAAACCCCCAAAUUUAAAAAAGUAUUAUGUUACGCCGUUCGGAUCUGCACUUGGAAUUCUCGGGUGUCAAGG | -1.16
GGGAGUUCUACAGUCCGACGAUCUUCAUGAGGACCUCCGCCUGCUCUUGGAGACCCACCUGCCGUCCAAAAAGAAGAAAGUACUCUUGGGAGUUGGGGAUCCCAAGAUUGGUGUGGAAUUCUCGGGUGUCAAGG | -0.0546
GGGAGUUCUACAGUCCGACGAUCACCAUGCAGGUGGGCAUCUUUGGGAAGUGGGGCAAGGGGGAAAUAGGGAGGGGGGUAACACUUUGGGAACAGGUGGUCCCAGGUCGUUUCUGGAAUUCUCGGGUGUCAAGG | -0.78
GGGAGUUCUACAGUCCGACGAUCUAACUUUAGAGGAGGAUCUGAUGGAUAUGGCAGUGGACGUGGAUUUGGGGAUGGCUAUAAUGGGUAUGGAGGAGGACCUUGAGGUGGCAAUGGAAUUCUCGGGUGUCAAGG | -0.995
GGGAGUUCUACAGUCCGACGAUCAAGUCCUGUGCUACACAUCGUAUGUACCGAAUCGGGCCCCCGGCCCCCGGCCCCCGGAAAGUAUUAUGUUACGCCGUUCGGAUCUGCACUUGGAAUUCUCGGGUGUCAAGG | -1.61
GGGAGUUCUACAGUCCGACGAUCAAGUCCUGUGCUACACAUCGUAUGUACCGAAUCGGAAAAGGAAAAGGGGAAAAGGGAAAGUAUUAUGUUACGCCGUUCGGAUCUGCACUUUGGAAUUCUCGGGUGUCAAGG | -1.51
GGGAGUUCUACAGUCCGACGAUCCUCAACGUUGACAGUAAUGAACAAGGCUCCUAUGUAGUGGCCAUGGAAACCUUUACCAACUUAGGACCCAUUGUCGAUAUGUGCGUGGUGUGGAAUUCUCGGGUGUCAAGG | -0.779
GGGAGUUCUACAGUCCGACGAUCACCAUGCAGGUGGGCAUCUUUGGGAAGUGGGGCAAGGGGGGGAUAGGGAGGGAGGUAACACUUUGGGAACAGGUGGUCCCAGGUCGUUUCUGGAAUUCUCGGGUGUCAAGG | 2.1
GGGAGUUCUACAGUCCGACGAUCUGGCCCUGGUGGCAUGCGGGGAGGAAGAGGUGGCCUCAUGGAUCGUGGUGGUCCCGGUGGAAUGUUCUGAGGUGGCCGUGGUGGAGACAGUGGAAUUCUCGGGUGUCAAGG | 3.64

Study 2
Target: RING finger protein unkempt homolog, zinc fingers 1-6, GST-SBP tag (UNK, Homo sapiens, UniProt Q9C0B0, residues 30-357)
Sequence of UniProt Q9C0B0 (30-357, looked up): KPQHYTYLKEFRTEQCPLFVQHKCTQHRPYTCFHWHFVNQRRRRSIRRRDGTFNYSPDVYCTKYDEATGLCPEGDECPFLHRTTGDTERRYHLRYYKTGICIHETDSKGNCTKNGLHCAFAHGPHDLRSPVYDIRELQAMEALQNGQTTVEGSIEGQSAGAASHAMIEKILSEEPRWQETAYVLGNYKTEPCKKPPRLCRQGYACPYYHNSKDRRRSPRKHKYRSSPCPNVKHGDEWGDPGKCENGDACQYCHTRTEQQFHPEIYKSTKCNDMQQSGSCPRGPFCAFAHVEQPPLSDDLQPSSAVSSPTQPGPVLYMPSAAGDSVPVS
Technique: RNA Bind-n-Seq
Form: RNA
Sample: in vitro
Tested at: not given
Setting: RNA with constant flanks, human and mouse sites, ends assumed
Reference: input RNA pool
Direction: higher = stronger binding
Sequence | bound/input enrichment
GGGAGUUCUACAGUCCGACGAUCGGUAGACCAGAAACCACAAAUUGACUUUUUUUCUUAGAAAAUAUUUCUAUUUGCGGUAAAUAUAGUAAUAUGUAAAUAAUGUACAUCUGUUGAUUUCUGGAGUGUCUGUUAUUCAAUGAUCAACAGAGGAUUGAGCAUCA | 54.8 ratio
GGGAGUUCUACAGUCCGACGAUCGUGCCGCUGAAGGAGAAGAAGCUCAUGGAAGUCAAACUUGGAGAGCUGCCGAGCUGGAUAAUGAUGCGGGAUUUCACCCCCAGUGGCAUUGCCGGAGCCUUUCGGAGAGGGUAUGACCGGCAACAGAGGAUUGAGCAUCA | 0.111 ratio
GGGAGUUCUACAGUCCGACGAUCACAGAUAAAGACAAUGGAGGGAUGCUUGUAUGGUCUCCAUAUCACAGUAUCCCAGAUGCCAAAUUGGAUGAAUACAUUGCAAUUGCAAAGGAAAAGCAUGGCUACAAUGUGGAACAGGCACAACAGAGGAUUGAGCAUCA | 0.179 ratio
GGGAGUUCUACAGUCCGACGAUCCAAUACAAAUCACUAAUUUUGGACUCCCUUCCUGGAGUGUGUGUGUGUGUGUGUGUGUGUGUGUGUGUGUGUGUGUGUGUGUGUGUGUGUGUAAAUGAGAAUGAGAUUUGUACACACCCACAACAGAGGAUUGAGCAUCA | 0.434 ratio
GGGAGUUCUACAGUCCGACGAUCGAAUGGCUGGAAAGCCACCAGGAUGCGGACAUUGAAGACUUUAAAGCCAAAAAGAAGGAACUAGAAGAAAUUGUUCAGCCAAUUAUCAGCAAACUCUAUGGAAGUGGAGGCCCUCCCCCACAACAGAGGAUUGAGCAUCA | 0.427 ratio
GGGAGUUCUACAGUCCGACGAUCAGCGGAUGAUAGAAGCAGUAGAUAACAAUUUACGGCCAAAAUCAGAAUAAGAGCUUUAUGUUCUGAGAAGCACUUUAAGGAAUUUAGCUUUGUCAAAAUAUAUUAGGAAUCACUAAUGAGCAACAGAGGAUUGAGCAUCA | 3 ratio
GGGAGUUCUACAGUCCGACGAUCAAGCGCAAGAAGAAUGACAUUUAUGGAGAAGACUAACAGCAGUACAUAUUAUGUAAUAAUUAGGACAAACUUAAAAUUUGGCAAAUAAUGUAUAUUGUAUGAAAUCAAUACUGUAAGCCCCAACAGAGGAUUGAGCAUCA | 0.641 ratio
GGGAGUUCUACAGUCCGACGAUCUUGGGUGUUCCAGCUCCAGGACAUUGUGCUCAGGAGUUUGAAAAAGGCUGCUAUACUCAGUCGGGUUACUGGGUUUCUUGUUCCUCUUUGUGCCUGCCUGCCUUGCCCAAGCUCACUCUGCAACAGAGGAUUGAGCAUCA | 0.191 ratio
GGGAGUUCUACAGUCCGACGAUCUGGAUGACGCUUUGUCAAACACAAAUGAAAUUAAUGGCGAUUCCUCUAGUCUUUCAGAUUAUGUUUGGAAUAUUAAAUGGUCUAUACCAUUAUGCAGUAUUUGAAGAGACACUUGAGAAACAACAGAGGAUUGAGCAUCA | 0.273 ratio
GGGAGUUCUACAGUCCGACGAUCACAGAGGGUAACAGAAGUAAAGUAGACAGUAAUAAAGCGCACACUGAUAAUAAGGCCGAAUUUCCAAGCUAUUUGUUGGGGGGGAGGUCUGGUGCAUUGAAAAAUUUCGUCAUUCCAAAACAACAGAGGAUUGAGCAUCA | 0.524 ratio
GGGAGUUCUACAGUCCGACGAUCAUGAGGCUAUCCUAGCUGCCCUCGAGCCUCCGGAAACUCAACCCAAAAGGAAGUGCUGUAUAUUCUAAACCGUUUUCUCCUUCCCCUCUUUGCUGCUGCUUCCUGUCCCACUACUGUAGACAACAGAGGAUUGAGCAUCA | 1.01 ratio

Study 3
Target: PABPC1L2, full length, GST fusion (mouse, UniProt A0ABA7IW68)
Technique: RNAcompete
Form: RNA
Sample: in vitro
Tested at: 20 nM
Setting: 7-mer, probes averaged, single round
Reference: mean of 7-mers
Direction: higher = stronger binding
Residues (chain): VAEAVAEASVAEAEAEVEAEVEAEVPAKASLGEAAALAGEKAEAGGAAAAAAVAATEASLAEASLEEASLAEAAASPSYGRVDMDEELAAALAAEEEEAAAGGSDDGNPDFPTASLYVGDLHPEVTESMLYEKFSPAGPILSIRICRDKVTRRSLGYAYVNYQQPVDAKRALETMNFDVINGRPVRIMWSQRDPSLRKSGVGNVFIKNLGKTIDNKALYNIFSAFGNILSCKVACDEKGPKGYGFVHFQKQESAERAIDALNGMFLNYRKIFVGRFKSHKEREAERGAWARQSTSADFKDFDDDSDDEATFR
Sequence | 7-mer Z-score
GAUCCCG | -0.226
GUGGCUU | -0.0301
GUUCAUU | -0.226
UGAUAGC | -0.229
GCCAUAU | -0.188
UGAACAU | -0.0283
UGUGAAC | -0.128
UUCGCAU | -0.421
CUAGUCG | -0.354
AAGCCAU | -0.0663
CUCUUAG | -0.36
GAGGAGU | -0.0228
CUAGUAC | -0.144
UAAUGUG | 0.000733
UGGAUGU | -0.0264
CAGAUUG | -0.142
CGUCUGC | -0.429
GAUGGAG | -0.00108

Study 4
Target: RNA binding protein fox-1 homolog 2, RRM domain, GST-SBP tag (RBFOX2, Homo sapiens, UniProt O43251-10, residues 100-194)
Technique: RNA Bind-n-Seq
Form: RNA
Sample: in vitro
Tested at: 365 nM
Setting: natural RNA segment, single round, ends assumed
Reference: no-protein control
Direction: higher = stronger binding
Construct (chain): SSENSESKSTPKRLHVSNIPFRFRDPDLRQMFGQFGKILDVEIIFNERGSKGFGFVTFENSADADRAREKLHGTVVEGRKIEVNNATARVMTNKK
Sequence | RBNS enrichment (R)
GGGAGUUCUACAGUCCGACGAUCCCCACUGGCCAGUCCUAGAGCUCCUGUCCCUACCCACUCUUUGCUACAAUAAAUGCUGAAUGAAUCCGCUCUGAGCCUGGUAUGUUUGGGGGACUGGGAAAAGUAGGGGAUGGAAUUCUCGGGUGCCAA | 0.902
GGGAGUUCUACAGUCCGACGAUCCAGGGCAGCAGAUCUGUAUAUUUUUUUCUAAGAGAAAAUGUAAAUAAAGGAUUUCUAGAUGAGUGAGCUCAUUACUAAACUAAAGCAGGAGUGGGUCAAUACAGCAGCUGUGGAAUUCUCGGGUGCCAA | 0.33
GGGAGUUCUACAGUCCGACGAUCUCCUCUCUAGCACUUCUCACCACUGAGCCAUCUCUCCAGCCCCAAUAACUUUAUUUUUUAAGACAGGGUUGCAAAUGUUUAAGAAACCAGAAGCAGGUAAAUCUGCCUAUUGGAAUUCUCGGGUGCCAA | 0.372
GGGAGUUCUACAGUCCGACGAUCGAGAACUCACAGAUCUUUAUAUGAGGACAGUGCUGAGGACUUUCUCAUGGCUCCAUCCUUUUGGUCCCUCGCCACUACCCUUGAAGCUGGCUUCAGUUCCCUGGCUGCUGUGGAAUUCUCGGGUGCCAA | 0.195
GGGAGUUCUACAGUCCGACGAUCAGGCAGAGAGGUGCCACUUGGCCUACUUGCUUCCUGUCCCCAAGACAGUCCUUUUCUUCUGAAGUAAAUAUACAUAUAUAAAUAAAUGUAUAAAUACUGCUUUGUAUCUGUGGAAUUCUCGGGUGCCAA | 0.375
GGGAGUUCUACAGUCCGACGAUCGAAGGGCUUUUCUCUACCCUGAAAUGAAGGUAAUCCAAAGGCAUCCAUUUUCUAGGCUUAAAAGAUAUAUUUUUGAUAUAUUUAAUUAUAUUCUCUACACUCCAGCAUUAUGGAAUUCUCGGGUGCCAA | 1.4
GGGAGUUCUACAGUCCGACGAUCUAGAGGACAUUGCUUUAAGCCCCAGUUUGUUUGUAGGGUUGAGUAUGAAAAAGCCCAUCUCCUGUGUCCCCAUUGCUCCUUCCCCUUAGCCUCGACAUUUCAAGUUGCGGUGGAAUUCUCGGGUGCCAA | 2.93
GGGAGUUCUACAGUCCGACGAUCCCUUCACAAGUCUGCCUUUCACCUGUGUCUGCUUCAGCAAAAUGUUCUUUCACAUUUGCCCCAGCAAAACCCCAUCUAACACAACUGACUUUCCAAAGAACCCUUAAGUUUGGAAUUCUCGGGUGCCAA | 0.417
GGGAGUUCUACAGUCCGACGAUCGCAAUUUGAGCUACCUGAGGAGGAGGCAGGGCAGAAAGGGCGAGGGCCUGCCUCUGACCUGCCGUGUCCUUUGCAGGAAGGAGGUAGGCACCUUUCUGAGCUUAUUCUAUUGGAAUUCUCGGGUGCCAA | 0.606
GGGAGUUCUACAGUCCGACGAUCGCUUUGUAUACAGGAGAUAAUACCACAUCAUCGGUUAUCUCCAAACUCCAGUCUUCUCUCAACUGCCCAGUUGUAUGUUGUCAUCAAUCACUUUUUCAAGGCUGGGUAGAUGGAAUUCUCGGGUGCCAA | 0.502
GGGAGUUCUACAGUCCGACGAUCCUCCUGGAAGUGUCUACCCUACAUUUGUGUCAGCUCAGGGUUGCAGUGUUGCCCAGAUGCAUUUUACAUCACUGUAAAGAGAUUACUUUUGUGGUUACUACCUGGCUUGGUGGAAUUCUCGGGUGCCAA | 0.419
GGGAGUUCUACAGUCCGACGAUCUUUUACUUGAGCAAAGAACUAAGGAUUUUUCCAUGGACAUGGGCAGCAAUUCACGCUGUCUCUUCUUAACCCUGAACAAGAGUGUCUAUGGAGCAGCCGGAAGUCUGUUCUGGAAUUCUCGGGUGCCAA | 0.207

A few entries again (study 3):
Sequence | 7-mer Z-score
UGAACAU | -0.0283
UGUGAAC | -0.128
UUCGCAU | -0.421
